# Earlier results that unrelated publications cite.
# Lines come from different studies, so protocols differ. Numbers after ± are the reported error.
# Chain of UniProt C7FF04 (whole entry, looked up): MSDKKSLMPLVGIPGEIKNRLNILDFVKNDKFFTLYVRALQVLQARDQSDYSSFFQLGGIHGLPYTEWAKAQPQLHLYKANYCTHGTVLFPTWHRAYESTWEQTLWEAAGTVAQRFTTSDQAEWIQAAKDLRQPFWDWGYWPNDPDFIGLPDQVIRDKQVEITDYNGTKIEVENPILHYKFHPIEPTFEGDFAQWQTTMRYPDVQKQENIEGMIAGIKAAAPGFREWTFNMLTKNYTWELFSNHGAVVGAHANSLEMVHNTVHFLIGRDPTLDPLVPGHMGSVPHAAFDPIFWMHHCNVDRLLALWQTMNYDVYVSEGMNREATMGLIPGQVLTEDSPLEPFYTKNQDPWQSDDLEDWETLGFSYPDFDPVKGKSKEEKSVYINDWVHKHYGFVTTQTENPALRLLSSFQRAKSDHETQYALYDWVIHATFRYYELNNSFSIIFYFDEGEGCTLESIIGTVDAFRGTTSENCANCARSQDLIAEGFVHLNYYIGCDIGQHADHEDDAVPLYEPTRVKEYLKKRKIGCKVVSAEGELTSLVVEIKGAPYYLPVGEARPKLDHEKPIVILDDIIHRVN
SMILES,target or system,test,conditions,scale,measurement,result
CC(C)(C)C(=O)NC(C(=O)NO)c1ccc(-c2ccsc2)cc1 (stereo not drawn),Plasmodium falciparum aminopeptidase M1,inhibitor,,,Ki,640 nM
Cc1n[nH]c(S/C(=C/c2ccc(-c3cccc(C(=O)O)c3)o2)C(=O)O)n1,MurA (Escherichia coli),"enzyme activity, inhibitor",,,IC50,1000 nM
COc1cccc(Cn2cc(-c3cccc(NC(=O)Nc4ccc(Br)cc4)c3)nn2)c1,IDO1,enzyme activity,,,IC50,750 nM
O=C(O)COc1ccc(Br)cc1/C=N/NC(=O)c1ccc(Cl)cc1,COX-2,,,,IC50,60 ± 10 nM
CC(O)CSc1nnc(-c2cc3ccccc3o2)n1-c1ccccc1 (stereo not drawn),"PPO3 (Agaricus bisporus, UniProt C7FF04)","enzyme activity, inhibitor",,,IC50,4520 ± 90 nM
C[C@@H](Nc1c(-c2c(F)cc(C#CCCO)cc2F)c(Cl)nc2ncnn12)C(C)(C)C,HEK293,,"1 µM, 4 h, unit not given",baseline: vehicle (DMSO),total α-tubulin level,0.98 ± 0.04
O=C1N=C(Nc2nc(-c3ccccc3)cs2)S/C1=C/c1ccc(Cl)cc1,COX-2,inhibitor,concentration not given,,inhibition,34%
O=C(O)COc1ccc(Br)cc1/C=N/NC(=O)c1ccccc1,COX-2,,,,IC50,80 ± 10 nM
Cc1ccc(C(C)C)c(O)c1/C=N/N=C1/SC(CC(=O)O)C(=O)N1c1ccccc1 (stereo not drawn),COX-2,,,,IC50,58 nM
CC(C)(C)OC(=O)NC(C(=O)NO)c1ccc(Br)cc1 (stereo not drawn),Plasmodium falciparum aminopeptidase M1,inhibitor,,,Ki,27 nM
O=C(O)COc1ccc(Br)cc1C=NNC(=O)Cc1ccccc1 (mixture of isomers),COX-2,,,,IC50,60 ± 10 nM
CN(C)CCCOc1cc(F)c(-c2c(Cl)nc3ncnn3c2NCC2CCC2)c(F)c1,HEK293,,"1 µM, 4 h, unit not given",baseline: vehicle (DMSO),acetylated α-tubulin level,1.49 ± 0.18

# A few entries again:
SMILES,target or system,test,conditions,scale,measurement,result
CC(C)(C)OC(=O)NC(C(=O)NO)c1ccc(Br)cc1 (stereo not drawn),Plasmodium falciparum aminopeptidase M1,inhibitor,,,Ki,27 nM
O=C(O)COc1ccc(Br)cc1C=NNC(=O)Cc1ccccc1 (mixture of isomers),COX-2,,,,IC50,60 ± 10 nM
